Published values from different studies.
Each numbered part is a random draw from the data of one study; scales do not carry over between parts.

Set 1
Target: Interferon regulatory factor 7, full length, phosphomimetic (IRF7, Homo sapiens, UniProt Q92985, residues 1-503, S471D/S472D/S475D/S476D/S477D/S483D/S484D/S487D)
Sequence of UniProt Q92985 (whole entry, unmodified, looked up): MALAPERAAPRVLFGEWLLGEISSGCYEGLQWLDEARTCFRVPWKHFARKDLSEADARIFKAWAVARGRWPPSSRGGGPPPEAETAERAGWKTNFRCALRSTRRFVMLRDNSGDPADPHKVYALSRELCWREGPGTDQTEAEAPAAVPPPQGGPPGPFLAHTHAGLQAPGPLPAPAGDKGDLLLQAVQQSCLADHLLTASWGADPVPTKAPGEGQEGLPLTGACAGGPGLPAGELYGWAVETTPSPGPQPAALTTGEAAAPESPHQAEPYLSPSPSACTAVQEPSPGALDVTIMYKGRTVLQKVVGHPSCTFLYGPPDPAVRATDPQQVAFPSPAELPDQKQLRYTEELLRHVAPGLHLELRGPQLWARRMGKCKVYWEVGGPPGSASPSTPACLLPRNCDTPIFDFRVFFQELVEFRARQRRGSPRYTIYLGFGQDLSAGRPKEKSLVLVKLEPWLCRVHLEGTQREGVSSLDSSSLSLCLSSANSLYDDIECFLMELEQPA
Method: protein-binding microarray
Form: double-stranded DNA, one strand shown
Sample: in vitro
Concentration: 2200 nM top
Setting: 60-bp whole probe
With: salmon DNA 0.4 mg/ml
Reference: random background probes
Direction: higher = stronger binding
All sequences stand within: GCCTAGCAC … GTCTTGATTCGCTTGACGCTGCTG
Sequence	fitted relative affinity
GTTTGGGTCTTGTCTGGAGTCGTGCTA	0.905 z-score
GACGATTTCGGTTTCGAGACGTGCTAG	9.91 z-score
ATAGATTTCAGTATCGATTAGTGCTAG	0.999 z-score
TTAGATTTCAGACGGGATTAGTGCTAG	-0.186 z-score
TTAGGTACCGGTCTCGGTTAGTGCTAG	0.373 z-score
TTAGATCTCAGTTTCGATTCGTGCTAG	10.9 z-score
TTAGAACTGAGTCGCGATTAGTGCTAG	-0.322 z-score
TTAGGGCTGGGTTTCGGTTAGTGCTAG	3.4 z-score
GACGGTATCGGTCTCGGGGCGTGCTAG	-0.0155 z-score
GACGGTCTCCGTCTCCTGACGTGCTAG	0.144 z-score
TTAGAGTTCGGGTTTCGATTAGTGCTA	2.7 z-score
TTAGATTTCAGTATAGATTAGTGCTAG	0.106 z-score
TGAGTGAAAGGCCCATACATGTGCTAG	-0.691 z-score
GACGGTATCTGACTGGGGACGTGCTAG	-0.0723 z-score
TGATGACTGGAGTCTGGACTAGTGCTA	-0.294 z-score
GACGGTTTCCTACTGCTGAAGTGCTAG	1.93 z-score
GACGATTTCAGTTTCGAGATGTGCTAG	6.05 z-score
GACGGACTGCTTATCCTGGCGTGCTAG	0.165 z-score
CAGAGCCTCAGTCCTCACACAGTGCTA	0.0363 z-score

Set 2
Target: RNA binding protein fox-1 homolog 2, RRM domain, GST-SBP tag (RBFOX2, Homo sapiens, UniProt O43251-10, residues 100-194)
Method: RNA Bind-n-Seq
Form: RNA
Sample: in vitro
Concentration: 365 nM
Setting: natural RNA segment, single round, ends assumed
Reference: no-protein control
Direction: higher = stronger binding
Construct (chain): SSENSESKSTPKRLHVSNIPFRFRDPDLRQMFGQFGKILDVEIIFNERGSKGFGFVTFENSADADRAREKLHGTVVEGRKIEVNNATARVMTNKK
Sequence	RBNS enrichment (R)
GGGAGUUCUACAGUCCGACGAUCAGGGGCUUCCCUACCUCAGGCAGGAAGGGCAGGAAGAAGAGCCUGGAGCCCAGGCGAGGGGGACGGCAAGGGCCUGUCUUUGUGCUCUGCCCCACCUAGCCUGGGCAGCAUGGAAUUCUCGGGUGCCAA	0.643
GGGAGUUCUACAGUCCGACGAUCGGGCCGCCCGCGGACAAGCCCGAGGAGAAUGAGGUGAGCGCUGCCCAGUCUUCCCCGUGUGCCGGCUGCGAGCCUCCUUGCUCCUGCAUCUCGACCAUUCCGUGUUGGCUUGGAAUUCUCGGGUGCCAA	1.37
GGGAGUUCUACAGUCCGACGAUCAUUUUAUAAGUUUUGUUACAUGAAAGGUUGAAAUAUUGAGUGGUUGAAAGUGAACUGCUGUUUGCCUGAUUGGUAAACCAACACACUACAAUUGAUAUCAAAAGGUUUCUUGGAAUUCUCGGGUGCCAA	0.419
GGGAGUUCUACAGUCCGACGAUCCUAUAAGUGAGACACUGUGCUGCACUGGCUGAAGACUUAAUGCUGUUACUCUAGGUAGUUGGAUCCCUUGAUGGUGGGGACUGUCUUUACUAAAGCUACAUCAGGCCUACUGGAAUUCUCGGGUGCCAA	0.454
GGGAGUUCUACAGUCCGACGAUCCUUCUCUUUUCCUCGCAGAUGAUAAAAGGAAUCUGGCAUUCUACACCUGGACCAUUUGAUUGUUUUAUUUUGGAAUUGGUGUAUAUCAUGAAGCCUUGCUGAACUAAGUUUGGAAUUCUCGGGUGCCAA	0.318
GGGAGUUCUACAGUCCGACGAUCUAUCACUUCAGGGCUUGGAAAAGUCAGUCAACUUGACGUACAUUUUUAGUGACAUUUUAAAAGCAGUCAGAUUCUAUAAAUGGCAAGUAAGCCUGAAGUGAGGAUACUGCUGGAAUUCUCGGGUGCCAA	0.336
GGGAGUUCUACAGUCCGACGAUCUUGUUGACUCAGGGCAUAAUGAGUUCCUGAGACAUGCUCUUUUGGGGGCUGGGGCUUUAGCUAGAAGAAUUUCAAGGAAAAGAAUUCUCAGCAGAGCUCAAGAUUGUAGAUGGAAUUCUCGGGUGCCAA	0.45
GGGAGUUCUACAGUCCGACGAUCAUAUUUUGUCAUCAUAAUCUUUAUGGUGGGGGCAGACUUUGCACUUACUGCAGUGCAACACUUGCACUUUAAUUUUCCUCCAACUGUCUAAAAUUAGAGCAAAUACAUUGUGGAAUUCUCGGGUGCCAA	0.321

Set 3
Target: Histone acetyltransferase KAT6A, both winged helices, GST fusion (KAT6A, Homo sapiens, UniProt Q92794, residues 1-181)
Method: protein binding microarray
Form: double-stranded DNA, one strand shown
Sample: in vitro
Concentration: not given
Setting: 8-mer, flanks averaged, mean of 2 arrays, mostly near background
Reference: not given
Direction: higher = stronger binding
Target sequence (chain): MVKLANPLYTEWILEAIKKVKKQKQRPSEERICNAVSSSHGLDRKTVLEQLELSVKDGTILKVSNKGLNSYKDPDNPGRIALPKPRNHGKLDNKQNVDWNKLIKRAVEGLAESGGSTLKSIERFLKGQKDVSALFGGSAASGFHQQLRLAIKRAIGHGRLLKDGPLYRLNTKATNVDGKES
Sequence	E-score
GCTTATAA	-0.0595
GATCGTAC	0.0123
CGGTGGGA	0.0485
GCGATGCA	0.0801
CGGGCCGA	0.22
CGCAATCA	0.221
AGGTCCTC	-0.103
TAGGCCGA	0.0158
CGCAATGC	0.232
AGCTAAAG	-0.143
GGTGATAA	-0.00593
ACAATACC	-0.0601
ATCTAAGA	-0.201
CAGTAAAA	0.0234
CCAATCCG	0.0506
AGTCCAGG	-0.15
CCCAGCAG	-0.239
CCACGAGC	-0.0566
GCGTACCA	0.0176

Set 4
Target: RING finger protein unkempt homolog, zinc fingers 1-6, GST-SBP tag (UNK, Homo sapiens, UniProt Q9C0B0, residues 30-357)
Sequence of UniProt Q9C0B0 (30-357, looked up): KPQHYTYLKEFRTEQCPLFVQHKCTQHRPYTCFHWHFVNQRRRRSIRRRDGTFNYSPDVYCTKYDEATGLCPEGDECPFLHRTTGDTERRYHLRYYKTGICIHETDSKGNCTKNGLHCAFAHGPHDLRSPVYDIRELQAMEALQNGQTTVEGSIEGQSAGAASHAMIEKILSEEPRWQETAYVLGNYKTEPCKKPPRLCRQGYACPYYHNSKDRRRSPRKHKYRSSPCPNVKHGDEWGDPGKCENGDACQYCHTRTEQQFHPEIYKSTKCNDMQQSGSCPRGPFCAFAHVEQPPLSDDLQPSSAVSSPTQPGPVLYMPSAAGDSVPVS
Method: RNA Bind-n-Seq
Form: RNA
Sample: in vitro
Concentration: not given
Setting: RNA with constant flanks, human and mouse sites, ends assumed
Reference: input RNA pool
Direction: higher = stronger binding
Sequence	bound/input enrichment
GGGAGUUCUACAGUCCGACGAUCGAGAGCUUUAUUACCAGACAUGAUCUUUCAGGAAAGGUUGUCAAUAUAGAUACAAAUUCACUGAGAUCCUCCAUGAGGCCUGGCUUUGAAGAUAUAAUCCGAAGGUGUAUUCAGAGAUUUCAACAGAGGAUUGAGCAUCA	0.238 ratio
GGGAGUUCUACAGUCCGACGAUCAAAGUCACCUCUCCUGUGUUGGUCAUUCACGGUACCGAGGAUGAGGUCAUCGAUUUCUCCCAUGGCUUGGCGAUGUAUGAGCGCUGUCCCCGUGCUGUGGAGCCCCUGUGGGUUGAGGGGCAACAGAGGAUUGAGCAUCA	0.282 ratio
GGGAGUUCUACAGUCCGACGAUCAUUCACAGAUUUAUUGUGAACACUCUGAAAGACGGAAGGAGAGUAGUUAUCUUGAUGGAAUUAGAAGUUUUGAAGUCAGCUGAAGCAGUUGGAGUGAAGAUUGGCAAUCCAGUGCCCUAUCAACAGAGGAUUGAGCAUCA	3.25 ratio
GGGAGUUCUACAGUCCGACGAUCGAAUACAUUGAUCAAGGUCGGAAUCCCCAGCUCUACACCAAAGAAUGCCUGGAGAGGGCUCUAGCUAAAAACGAGCAAGUCAAGGGCAAGAUCGACACAAUGAAGAAAUUUAAAAGCCUACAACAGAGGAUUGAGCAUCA	0.178 ratio
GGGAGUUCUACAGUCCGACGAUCCUGGACAACAGGGAGAAAGGAGAGAAACUGAAGAAAGAAGACGGUAGACCAGCAUUGCAGCACUUACAGUCACUAAUUCCCUUAAGGUUGAGACUAUAGUGACAGGAAAGGGUCAAUGACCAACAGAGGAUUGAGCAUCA	0.27 ratio
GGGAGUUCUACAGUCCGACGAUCCCACCUCACCCAGGCAUGGGCCCUCCCCAGAGUCCAAUGGAUCAACACAGCCAAGGUUAUAUGUCACCACACCCAUCUCCAUUAGGAGCCCCAGAGCACGUCUCCAGCCCUAUGUCUGGACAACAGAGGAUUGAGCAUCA	0.32 ratio
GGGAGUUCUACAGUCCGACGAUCAAGUACUUAGCCCAGCUGCUGAACAGUGUACGGUUACCAUUGCUGAGCGUUAAGUUCCUCACUAGGCUCUAUGAAGCGAAUCAUCUUAUCCGUGAUGAUCGCACCUGUAAACAUCUCUUGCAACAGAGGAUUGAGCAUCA	0.405 ratio
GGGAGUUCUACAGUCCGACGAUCUAUGAAGUGUACAGCUCCUCAGCAGGCCCUGCGGUCAGACACAAGUGCCUUAGAGCAAUUCUUAGGAUAAUUUAUUUUGCUGAUGCUGAACUUCUGAAGGAUGUUCUGAAAAAUCAUGCUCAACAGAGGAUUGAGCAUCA	17.8 ratio

Excerpt of the above (set 1):
Sequence	fitted relative affinity
CAGAGCCTCAGTCCTCACACAGTGCTA	0.0363 z-score
TTAGATCTCAGTTTCGATTCGTGCTAG	10.9 z-score
TGAGTGAAAGGCCCATACATGTGCTAG	-0.691 z-score
TTAGGTACCGGTCTCGGTTAGTGCTAG	0.373 z-score
TTAGAGTTCGGGTTTCGATTAGTGCTA	2.7 z-score
GTTTGGGTCTTGTCTGGAGTCGTGCTA	0.905 z-score
GACGGTCTCCGTCTCCTGACGTGCTAG	0.144 z-score
TGATGACTGGAGTCTGGACTAGTGCTA	-0.294 z-score
